# Assay results collected from several papers.
# ± gives the spread as reported.
Structure (SMILES),test,system,setting,logD
CC(C)CC(=O)N[C@H](C(=O)N[C@H](C(=O)N[C@@H](CC(C)C)[C@@H](O)CC(=O)N[C@@H](C)C(=O)N[C@@H](CC(C)C)[C@@H](O)CC(=O)NCCCC[C@H](NC(=O)CCOCCOCCNC(=O)CN1CCN(CC(=O)O)CCN(CC(=O)O)CC1)C(=O)O)C(C)C)C(C)C [gallium-68 labelled],,PBS,,-1.66 ± 0.18
CCOC(=O)N1C[C@@H](c2ccc(Cl)cc2)N[C@@H](c2cc(Cl)cc(Cl)c2)C1,"shake-flask, 1-octanol/buffer",,pH 7.4,> 4.7
COC(=O)/C=C\C(=O)NNC(=O)CCc1ccccc1C(=O)N[C@H](C)c1cccc2ccccc12,,,,3
COc1cc2[nH]c(C)c(-c3ccc(C(C)=O)cc3)c(=O)c2cc1Cl,chromatographic,,pH 7.4,2.3
COc1ccc2nc(COc3ccc(CC4SC(=O)NC4=O)cc3)n(C)c2c1 (stereo not drawn),,octanol/buffer,"67 µM, pH 7.4",1.16
CCNC(=O)c1ncccc1O,miniaturised shake-flask,1-octanol/water,,1.54
CCOC(=O)N1C[C@@H](c2ccc(Cl)cc2)N[C@@H](c2ccc(-c3ccccc3)cc2)C1,"shake-flask, 1-octanol/buffer",,pH 7.4,> 4.7
COc1ccc(CC(NC(C)=O)c2ccc3cccnc3c2O)cc1OC (stereo not drawn),,octanol/buffer,pH 7.4,1.97
Cc1ncc2c(c1O)COC2c1ccc(Cl)cc1 (stereo not drawn),miniaturised shake-flask,1-octanol/water,,2.2
Cc1cc(Nc2ccc3c(c2)CCCC3)n2ccnc2n1,,,,4
COc1cc2[nH]c(C)c(-c3ccc(C)cc3)c(=O)c2cc1Cl,chromatographic,,pH 7.4,2.8
CN1CCN(c2cccc(-c3ccc4ncnc(Nc5ccc(Cl)c(C(F)(F)F)c5)c4c3)c2)CC1,shake flask,1-octanol/phosphate buffer,pH 7.4,> 4.3
COc1cccc(OC)c1CNC(=O)c1ccc2c(c1)C(=NNc1ccc(S(N)(=O)=O)cc1)C(=O)N2,,octanol/buffer,"67 µM, pH 7.4",3.21
CN(c1ccc(F)cc1)c1c(-c2ccc(F)cn2)nc2ccccn12,,,pH 7.4,2.9
O=C(O)CNC(=O)c1nc(Cl)c2ccccc2c1O,miniaturised shake-flask,1-octanol/water,,0.7
Cn1c(COc2cccc3cccnc23)nnc1SCC(N)=O,,octanol/buffer,pH 7.4,0.64
Cc1cc(Cl)cc2sc(N(CCCn3ccnc3)C(=O)c3ccco3)nc12,,,,3.83
O=C(O)c1cc(-c2ccc(-c3ccc(Cl)s3)cc2)c2ccc(-c3ccc(C(F)(F)F)cc3)cc2c1,HPLC retention,,"pH 7.4, chromatographic logD",3.3
COC(=O)/C=C/C(=O)NNC(=O)CCc1ccccc1C(=O)N[C@H](C)c1cccc(-c2cc3ccccc3o2)c1,,,,4
CCn1c(SCC(=O)Nc2ccccc2OC)nnc1-c1ccco1,,octanol/buffer,pH 7.4,2.47
CCc1c(C)[nH]c2cc(OC)c(Cl)cc2c1=O,chromatographic,,pH 7.4,2.4
C[C@@H]1CN(c2cccc(-c3ccc4ncnc(Nc5ncco5)c4c3)c2)C[C@H](C)O1,shake flask,1-octanol/phosphate buffer,pH 7.4,> 3.6
O=C(NO)[C@H]1CSC(c2ccc(OC(F)(F)F)c(Cl)c2)=N1,,octanol/buffer,pH 7.4,3.15
CCc1ccccc1-c1c(C)[nH]c2cc(OC)c(Cl)cc2c1=O,chromatographic,,pH 7.4,2.9
Cn1c(Cc2ccccc2)nnc1Sc1ccc([N+](=O)[O-])cc1C(=O)N1CCOCC1,,octanol/buffer,pH 7.4,1.45
Cc1cccc([C@H]2N[C@@H](C3CCCCC3)CO[C@@H]2C)c1,"shake-flask, 1-octanol/buffer",,pH 7.4,> 4.7
COc1cc2[nH]c(C)c(-c3cccc(CO)c3)c(=O)c2cc1Cl,chromatographic,,pH 7.4,3.5
C[C@@H](NC(=O)c1ccccc1CCC(=O)NNC(=O)/C=C/C(=O)OC1CCCCC1)c1cccc2ccccc12,,,,4.8
CN1C(C(=O)Nc2ccccn2)=C(O)c2sccc2S1(=O)=O,,,,-1.1
O=S(=O)(c1ccc(F)cc1)N1CCNCC1COc1ccc2c(c1)OCO2 (stereo not drawn),experimental partition,,pH 7.4,2.29 ± 0.02
O=C1CCC(c2ccc(OCC(=O)OCCCCc3cn(CCCCCCN4CCc5c(c6ccccc6n5Cc5ccc(C(=O)NO)cc5)C4)nn3)cc2)C(=O)N1 (stereo not drawn),HPLC-based method,,pH 7.4,2.2
Cc1ccnc(C(=O)NC2CCCCC2)c1O,miniaturised shake-flask,1-octanol/water,,3.3
CCOC(=O)N1C[C@@H](c2cnn(C)c2)N[C@@H](c2ccc(-c3ccccc3)cc2)C1,"shake-flask, 1-octanol/buffer",,pH 7.4,> 4.7
C[C@@H](NC(=O)c1ccccc1CCC(=O)NNC(=O)/C=C/C(=O)OCc1nccs1)c1cccc2ccccc12,,,,3.1
CC1(C)NC(=O)N(c2ccc(F)c(C(C)(F)F)c2)C1=O,chromatographic HPLC,,pH 7.4,2.6
CC(C)OC(=O)/C=C/C(=O)NNC(=O)CCc1ccccc1C(=O)N[C@H](C)c1cccc2ccccc12,,,,3.7
CCOC(=O)N1C[C@@H](C2CCCCC2)N[C@@H](c2ccc(-c3ccccc3)cc2)C1,"shake-flask, 1-octanol/buffer",,pH 7.4,> 4.7
COc1cc2[nH]c(C)c(-c3cc4ccccc4o3)c(=O)c2cc1Cl,chromatographic,,pH 7.4,3.2
COc1ccc2nc(-c3cc(N(C)C)ccn3)c(N(C)c3ccc(F)cc3)n2c1,,,pH 7.4,2.6
COC(=O)C(C)n1nc(Cn2cc3cc(OCCF)c(Cl)cc3n2)c2ccccc2c1=O (racemic),,,"pH 7.4, room temperature",2.75 ± 0.1
CN1C(C(=O)Nc2nccs2)=C(O)c2ccccc2S1(=O)=O,miniaturised shake-flask,1-octanol/water,,-0.9
CCOC(=O)N1C[C@@H](c2cc(Cl)cc(Cl)c2)N[C@@H](c2nc3ccccc3n2C)C1,"shake-flask, 1-octanol/buffer",,pH 7.4,> 4.7
COc1cc2[nH]c(C)c(-c3c(F)cccc3F)c(=O)c2cc1Cl,chromatographic,,pH 7.4,2.1
CC(C)(C)c1ccc([C@@H]2COC[C@H](c3ccc(Cl)cc3)N2)cc1,"shake-flask, 1-octanol/buffer",,pH 7.4,> 4.7
Cc1ccc(Oc2ccc(NC(=O)COc3ccccc3N3CCCC3=O)cc2)cc1,shake-flask,,,4.8
Cc1ccc2ccc(C(=O)O)c(O)c2n1,miniaturised shake-flask,1-octanol/water,,-0.3
COc1ccc([C@H]2COC[C@H](c3ccc(C(C)(C)C)cc3)N2)cc1,"shake-flask, 1-octanol/buffer",,pH 7.4,> 4.7
COc1ccc(C(=O)CSc2nnc(-c3ccc(OC)c(OC)c3)n2-c2ccccc2)cc1,,octanol/buffer,pH 7.4,3.72
COc1cc2[nH]c(C)c(-c3ccco3)c(=O)c2cc1Cl,chromatographic,,pH 7.4,2.1
Cc1ccc(Oc2ccc(NC(=O)CN(C)c3ccccc3N3CCCC3=O)cc2)cc1,shake-flask,,,4.6
Cn1ccc(-c2ccc(-c3cc(C(=O)O)cc4cc(-c5ccc(C(F)(F)F)cc5)ccc34)cc2)n1,HPLC retention,,"pH 7.4, chromatographic logD",0.97 ± 0.01

# For quick reference, copied from above:
Structure (SMILES),test,system,setting,logD
CCn1c(SCC(=O)Nc2ccccc2OC)nnc1-c1ccco1,,octanol/buffer,pH 7.4,2.47
CCc1c(C)[nH]c2cc(OC)c(Cl)cc2c1=O,chromatographic,,pH 7.4,2.4
C[C@@H]1CN(c2cccc(-c3ccc4ncnc(Nc5ncco5)c4c3)c2)C[C@H](C)O1,shake flask,1-octanol/phosphate buffer,pH 7.4,> 3.6
O=C(NO)[C@H]1CSC(c2ccc(OC(F)(F)F)c(Cl)c2)=N1,,octanol/buffer,pH 7.4,3.15
CCc1ccccc1-c1c(C)[nH]c2cc(OC)c(Cl)cc2c1=O,chromatographic,,pH 7.4,2.9
Cn1c(Cc2ccccc2)nnc1Sc1ccc([N+](=O)[O-])cc1C(=O)N1CCOCC1,,octanol/buffer,pH 7.4,1.45
Cc1cccc([C@H]2N[C@@H](C3CCCCC3)CO[C@@H]2C)c1,"shake-flask, 1-octanol/buffer",,pH 7.4,> 4.7
COc1cc2[nH]c(C)c(-c3cccc(CO)c3)c(=O)c2cc1Cl,chromatographic,,pH 7.4,3.5
